Measurements pooled from the literature.
Each numbered part is a random draw from the data of one study; scales do not carry over between parts. Positions count from the first letter of the parent shown.

Series 1 — target: CCNB2, cyclin fold, Cln2 fusion (human); technique: yeast growth competition, sequencing; matrix: yeast; setting: weak parent motif; reference: not given; reading: higher = stronger binding; quantity: normalised enrichment score
Starting sequence: CDC25A docking peptide (human); PPHRRRLLFACSP
Substitution = PPHRRRGLFACSP [L7G]; value = 0.298
Substitution = MPHRRRLLFACSP [P1M]; value = 0.355
Substitution = PPHRRRLLFACSL [P13L]; value = 0.456
Substitution = PPHLRRLLFACSP [R4L]; value = 0.836
Substitution = PPHRRRLLFACSV [P13V]; value = 0.388
Substitution = PPTRRRLLFACSP [H3T]; value = 0.104

Series 2 — technique: DHFR PCA, deep sequencing; matrix: yeast; with: (+)-ABA 0.032 µM; reference: wild-type fitted maximum; reading: higher = stronger binding; quantity: relative binding score
Target: ABI1, truncated, D143A, DHFR fusion (Arabidopsis thaliana)
Setting: methotrexate growth selection, single substitutions
Starting sequence: PYL1, truncated, DHFR fusion (Arabidopsis thaliana); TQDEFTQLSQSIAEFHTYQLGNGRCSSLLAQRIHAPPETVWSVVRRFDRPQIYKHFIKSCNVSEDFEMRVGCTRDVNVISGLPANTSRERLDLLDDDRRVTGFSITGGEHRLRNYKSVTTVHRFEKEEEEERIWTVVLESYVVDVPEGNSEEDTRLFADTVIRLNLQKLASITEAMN; partner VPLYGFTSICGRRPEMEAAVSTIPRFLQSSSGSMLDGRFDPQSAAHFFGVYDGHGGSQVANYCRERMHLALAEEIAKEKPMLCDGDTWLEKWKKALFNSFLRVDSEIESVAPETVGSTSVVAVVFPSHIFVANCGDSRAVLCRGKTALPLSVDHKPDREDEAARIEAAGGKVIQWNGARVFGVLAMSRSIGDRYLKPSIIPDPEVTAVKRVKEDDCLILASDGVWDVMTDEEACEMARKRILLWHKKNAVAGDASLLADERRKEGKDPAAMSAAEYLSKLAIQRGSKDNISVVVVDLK
Substitution = S80V; value = -0.0399%
Substitution = L166S; value = -2.66%
Substitution = T101Y; value = 8.24%
Substitution = R74S; value = -4.14%
Substitution = Y141N; value = 0.139%

Series 3 — technique: RNA Bind-n-Seq; form: RNA; matrix: in vitro; concentration: not given; reference: input RNA pool; reading: higher = stronger binding; quantity: bound/input enrichment
Target: RING finger protein unkempt homolog, zinc fingers 1-6, GST-SBP tag (UNK, Homo sapiens, UniProt Q9C0B0, residues 30-357)
Setting: RNA with constant flanks, human-mouse chimeric sites, ends assumed
Shared flanks, not repeated: GGGAGUUCUACAGUCCGACGAUC … CAACAGAGGAUUGAGCAUCA
Residues (chain): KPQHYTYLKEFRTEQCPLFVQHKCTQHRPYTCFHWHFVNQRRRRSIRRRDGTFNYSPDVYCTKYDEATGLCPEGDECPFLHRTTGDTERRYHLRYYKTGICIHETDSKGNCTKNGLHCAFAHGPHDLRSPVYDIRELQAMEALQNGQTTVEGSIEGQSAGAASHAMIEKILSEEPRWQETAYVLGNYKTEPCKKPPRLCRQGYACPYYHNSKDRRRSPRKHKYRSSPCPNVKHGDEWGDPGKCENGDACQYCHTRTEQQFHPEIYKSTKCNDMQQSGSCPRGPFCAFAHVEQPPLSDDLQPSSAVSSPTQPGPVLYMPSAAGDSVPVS
Strand = AAAGUGAUGACUAUGUUUGUACAGCGACAGGUAUUUUCGGAGAGCAAGGAUGAGAUUGCGUUAGUCCUCUAUGGCACAGAUGGCACUGAUAAUGCCCUUGCUGGCAAGGACCAGUAUCAG; value = 0.106 ratio
Strand = CAGCCUCAGAGCCCAGACUUCCUGGACAUUACCAACCCUAAAGCGGUAUUAGAAAAUGCAUUGAGAAACUUCGCCUGUCUGACGACUGGGGAUGUGAUUGCUAUCAACUACAAUGAGAAG; value = 0.503 ratio
Strand = UCCCUGUUGCUGAAUAAAUGGCUUGUAAAGAAGUUUUUCCAAGCUGUAACCCAUGCUUCCCUUAGAGUUGCUGCAAAAUGUUCUUCCUGAUAUUGAUUUUAUUUGUUAACUGAAGGUCUC; value = 0.554 ratio
Strand = GAGUCGAUUAUGGAAACAACAAUUCGUUAUCUUGCAGCCUCAGUGUUCACUUGCUUGGCGAUAGCAUUGGGGUUUUAUAUAGAUUCUAAGGAGAACUGACGAUGAUGCUGCCGCUGCUGC; value = 0.342 ratio
Strand = GUAGCUGGGACUACAGAAAUGCUGGUAGUGCUCCGGCCUUGCUGAUGACUUCUGAUGUCCCAGCAAAUGUUGGCAUUGUUGACUGCUGAGAAGAUACACUCGCAAGGCCACGUCUAAGGU; value = 0.0784 ratio
Strand = CAGUCCCCGUGUCCCAGUGCAGGACGAUGUGAACAAAAACUCAAAGCGGACCCUCUACUGUAGUUGAUUUUUUAAAUAAUGUGCUAUUAUUGUUUGUCUUUUUUUUUUUUUUUUUAAAGA; value = 7.07 ratio

Single results of other studies
Substance = PhoQ, residues 284 288 289 292 302 303 QWQEDG; target = PhoP, residues 12 14 15 18 19 DLLYY (Escherichia coli, UniProt P23836); assay = Sort-seq, item: YFP reporter; system = E. coli; conditions = PhoQ-PhoP variant library, with: 10 µM Mg2+; how to read = reference: high Mg2+ state, higher = stronger signaling; quantity = fold induction; value = 2.34

For quick reference, copied from above (series 3):
Strand = GUAGCUGGGACUACAGAAAUGCUGGUAGUGCUCCGGCCUUGCUGAUGACUUCUGAUGUCCCAGCAAAUGUUGGCAUUGUUGACUGCUGAGAAGAUACACUCGCAAGGCCACGUCUAAGGU; value = 0.0784 ratio
